# Measured values from different studies.
# Compare with care: the assays were run in different laboratories. ± marks the error that the study gave.
# CYP3A4: Cytochrome P450 3A4 (CYP3A4, Homo sapiens, UniProt P08684)
# Sequence of UniProt P08684 (whole entry, unmodified, looked up): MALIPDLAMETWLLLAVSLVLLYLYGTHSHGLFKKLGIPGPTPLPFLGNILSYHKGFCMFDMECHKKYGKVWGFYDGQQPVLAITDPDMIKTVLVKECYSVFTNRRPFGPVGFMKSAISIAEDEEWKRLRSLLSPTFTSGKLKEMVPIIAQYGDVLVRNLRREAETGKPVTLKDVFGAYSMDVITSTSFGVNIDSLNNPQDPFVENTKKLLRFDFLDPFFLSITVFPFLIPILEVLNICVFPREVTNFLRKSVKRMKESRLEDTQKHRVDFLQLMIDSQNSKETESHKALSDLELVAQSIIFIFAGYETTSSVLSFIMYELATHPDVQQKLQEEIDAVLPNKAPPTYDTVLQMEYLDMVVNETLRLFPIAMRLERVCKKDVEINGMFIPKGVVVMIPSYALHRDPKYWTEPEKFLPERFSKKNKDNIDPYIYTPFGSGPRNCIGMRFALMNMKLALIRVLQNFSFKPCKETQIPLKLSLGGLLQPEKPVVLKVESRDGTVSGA
# ABCG2: Broad substrate specificity ATP-binding cassette transporter ABCG2 (ABCG2, Homo sapiens, UniProt Q9UNQ0)
# Sequence of UniProt Q9UNQ0 (whole entry, looked up): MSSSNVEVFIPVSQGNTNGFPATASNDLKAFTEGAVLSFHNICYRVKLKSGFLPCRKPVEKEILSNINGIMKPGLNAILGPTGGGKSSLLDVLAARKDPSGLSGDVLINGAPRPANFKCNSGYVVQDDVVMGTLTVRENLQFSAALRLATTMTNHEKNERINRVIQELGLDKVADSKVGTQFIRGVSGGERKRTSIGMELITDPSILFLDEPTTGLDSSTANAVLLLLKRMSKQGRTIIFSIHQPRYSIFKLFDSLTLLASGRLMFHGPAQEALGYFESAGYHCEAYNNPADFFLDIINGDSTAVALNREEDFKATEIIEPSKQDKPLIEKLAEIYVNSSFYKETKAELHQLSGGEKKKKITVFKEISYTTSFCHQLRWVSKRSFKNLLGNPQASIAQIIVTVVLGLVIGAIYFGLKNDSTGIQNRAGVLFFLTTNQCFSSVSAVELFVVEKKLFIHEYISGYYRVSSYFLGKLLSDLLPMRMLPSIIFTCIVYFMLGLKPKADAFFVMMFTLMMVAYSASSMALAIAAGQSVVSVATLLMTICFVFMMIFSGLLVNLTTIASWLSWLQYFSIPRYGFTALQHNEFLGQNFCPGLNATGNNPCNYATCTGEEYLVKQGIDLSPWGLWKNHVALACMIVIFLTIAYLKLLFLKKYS
# CYP2C9: Cytochrome P450 2C9 (CYP2C9, Homo sapiens, UniProt P11712)
# Sequence of UniProt P11712 (whole entry, looked up): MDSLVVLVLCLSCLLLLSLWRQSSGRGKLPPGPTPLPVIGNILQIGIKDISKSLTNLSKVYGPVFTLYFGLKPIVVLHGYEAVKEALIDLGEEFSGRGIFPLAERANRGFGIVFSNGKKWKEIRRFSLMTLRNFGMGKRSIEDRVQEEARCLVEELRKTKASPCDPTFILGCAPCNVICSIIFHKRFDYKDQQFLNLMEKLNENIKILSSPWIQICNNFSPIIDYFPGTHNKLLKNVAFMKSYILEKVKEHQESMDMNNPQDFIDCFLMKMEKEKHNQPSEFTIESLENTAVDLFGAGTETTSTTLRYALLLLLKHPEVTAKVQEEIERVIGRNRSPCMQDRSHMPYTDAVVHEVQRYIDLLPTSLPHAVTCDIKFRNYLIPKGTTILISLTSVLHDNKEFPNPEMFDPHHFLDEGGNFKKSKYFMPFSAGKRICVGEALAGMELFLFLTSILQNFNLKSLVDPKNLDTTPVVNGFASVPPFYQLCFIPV
# CYP2C8: Cytochrome P450 2C8 (CYP2C8, Homo sapiens, UniProt P10632)
# Sequence of UniProt P10632 (whole entry, looked up): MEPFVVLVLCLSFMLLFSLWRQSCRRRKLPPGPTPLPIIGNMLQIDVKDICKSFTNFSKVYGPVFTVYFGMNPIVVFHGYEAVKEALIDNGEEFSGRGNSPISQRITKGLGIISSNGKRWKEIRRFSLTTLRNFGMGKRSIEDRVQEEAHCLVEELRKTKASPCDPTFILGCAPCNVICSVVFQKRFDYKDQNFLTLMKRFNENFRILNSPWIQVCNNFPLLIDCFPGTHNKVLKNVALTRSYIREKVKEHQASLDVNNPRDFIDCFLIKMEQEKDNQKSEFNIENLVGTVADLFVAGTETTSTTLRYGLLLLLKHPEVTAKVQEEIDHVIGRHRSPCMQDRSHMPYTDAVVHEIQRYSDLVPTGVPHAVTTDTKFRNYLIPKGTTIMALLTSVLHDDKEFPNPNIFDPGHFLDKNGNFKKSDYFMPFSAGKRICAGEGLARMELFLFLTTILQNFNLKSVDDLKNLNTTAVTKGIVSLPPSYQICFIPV
SMILES,target or system,test,system,conditions,how to read,quantity,value
OCc1ncc2n1-c1ccc(Cl)cc1C(c1ccccc1F)=NC2,CYP3A4,,human,"25 mg once daily, day 10, together with: midazolam 7.5 mg",baseline: compound over midazolam,AUC ratio,0.319
O=C1c2ccccc2-c2c1c1c(O)cccc1n2CCCc1ccccc1,ABCG2,"mitoxantrone efflux, inhibitor, flow cytometry",HEK293 transfected with ABCG2,"10 µM, 30 min, together with: mitoxantrone 5 µM",baseline: Ko143 1 µM,inhibition,98 ± 25%
CNC(=O)O/N=C/C(C)(C)SC,CYP2C9,inhibitor,human liver microsomes,"10 µM, pH 7.4, together with: diclofenac",,inhibition,0.11%
COc1ccc(CCn2c3c(c4c(O)cccc42)C(=O)c2ccccc2-3)cc1,ABCG2,"mitoxantrone efflux, inhibitor, flow cytometry",HEK293 transfected with ABCG2,"10 µM, 30 min, together with: mitoxantrone 5 µM",baseline: Ko143 1 µM,inhibition,111 ± 14%
COc1cccc(C2(O)CCCCC2CN(C)C)c1 (stereo not shown),complex I,oxygen consumption acceleration,BALB/cByJ female mouse liver mitochondria,"60 min, together with: malate + glutamate",,EC20,239 µM
CNC(=O)O/N=C/C(C)(C)[S+](C)[O-] (stereo not shown),CYP2C9,inhibitor,human liver microsomes,"10 µM, pH 7.4, together with: diclofenac",,inhibition,14%
Cc1cc(O)c2c3c(n(CCc4ccccc4)c2c1)-c1ccccc1C3=O,ABCG2,"mitoxantrone efflux, inhibitor, flow cytometry",HEK293 transfected with ABCG2,"10 µM, 30 min, together with: mitoxantrone 5 µM",baseline: Ko143 1 µM,inhibition,92 ± 22%
Cc1ncc2n1-c1ccc(Cl)cc1C(c1ccccc1F)=NC2,"Cytochrome P450 3A4 (CYP3A4, Homo sapiens, UniProt P08684, C239T/C377A/C468S/C58A/C64M/C98A)","ligand, stopped flow",,"40 µM, pH 7.4, Cys-less variant",,kslow,0.022 ± 0.03 s⁻¹
Cc1ncc2n1-c1ccc(Cl)cc1C(c1ccccc1F)=NC2,CYP3A4,,"healthy female humans, plasma","oral, dose not given, day 1, probe cocktail alone",,Cmax,14 ± 5.3 ng/mL
CC[C@@H]1CN2CCc3c([nH]c4cccc(OC)c34)[C@H]2C[C@@H]1/C(=C\OC)C(=O)OC,CYP2C8,"enzyme activity, inhibitor","human, liver microsomes",,,IC50,36.6 µM
CN[C@@](C)(C[18F])C(=O)O,DU-145 tumour model,,"host not given, tumour","30 min, tumour-bearing",,tracer uptake,5.1 %ID/g
CC[C@@H]1CN2CC[C@@]3(O)C(=Nc4cccc(OC)c43)[C@@H]2C[C@@H]1/C(=C\OC)C(=O)OC,CYP2C8,"enzyme activity, inhibitor","human, liver microsomes",,,IC50,> 45 µM
O=C1c2ccccc2-c2c1c1c(O)cccc1n2CCc1ccccc1,ABCG2,"mitoxantrone efflux, inhibitor, flow cytometry",HEK293 transfected with ABCG2,"10 µM, 30 min, together with: mitoxantrone 5 µM",baseline: Ko143 1 µM,inhibition,81 ± 5%

# For quick reference, copied from above:
SMILES,target or system,test,system,conditions,how to read,quantity,value
O=C1c2ccccc2-c2c1c1c(O)cccc1n2CCCc1ccccc1,ABCG2,"mitoxantrone efflux, inhibitor, flow cytometry",HEK293 transfected with ABCG2,"10 µM, 30 min, together with: mitoxantrone 5 µM",baseline: Ko143 1 µM,inhibition,98 ± 25%
